Measurements gathered from unrelated publications.
Parts stem from different laboratories: compare values within a part only. Positions count from the first letter of the parent shown.
Sequence of UniProt Q9C0B0 (30-357, looked up): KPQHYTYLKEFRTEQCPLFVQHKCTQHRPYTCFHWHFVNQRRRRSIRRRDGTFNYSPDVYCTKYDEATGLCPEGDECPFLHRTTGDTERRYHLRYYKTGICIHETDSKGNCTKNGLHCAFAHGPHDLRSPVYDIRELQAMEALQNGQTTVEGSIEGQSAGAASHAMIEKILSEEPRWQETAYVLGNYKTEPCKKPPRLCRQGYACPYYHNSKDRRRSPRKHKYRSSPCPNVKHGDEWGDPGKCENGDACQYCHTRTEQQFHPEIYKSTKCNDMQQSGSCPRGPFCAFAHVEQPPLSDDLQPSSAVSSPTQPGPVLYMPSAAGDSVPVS

Series 1 — technique: RNA Bind-n-Seq; form: RNA; medium: in vitro; tested at: 365 nM; reference: no-protein control; direction: higher = stronger binding
Target: RNA binding protein fox-1 homolog 2, RRM domain, GST-SBP tag (RBFOX2, Homo sapiens, UniProt O43251-10, residues 100-194)
Setting: natural RNA segment, single round, ends assumed
Shared flanks, not repeated: GGGAGUUCUACAGUCCGACGAUC … UGGAAUUCUCGGGUGCCAA
Target sequence (chain): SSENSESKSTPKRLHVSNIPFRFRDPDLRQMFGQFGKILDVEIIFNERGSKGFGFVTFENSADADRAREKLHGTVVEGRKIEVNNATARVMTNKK
Strand	RBNS enrichment (R)
CUGCCUUUUGGGUCAGUAUAGGAUGCAUAAGUGGUAGAAUCUUCACACUUCCCACUGCCAAGAUUUUGUAUUGCCAUCAGGUGCCAAAUAAAUGUUGAUACUUAUUACUG	0.495
CGUGUGAGUCUCAGGCCAGGCCCUUAUUUCUGAAUGUGUUUGAAUUUUAAGUUUGCCUUAUCAGAUAUCUGAGCUGUGCGACAAGUAAGUAGCUCUGGGGCCAUGUCUUG	0.997
AGAAAGUCCAACAGUGACACUCCCCCUGCUCCAAGGUGGGGACUUAAGUUUGUGAGGUACAAGAAUAUGUUUUCAUGAAAGUAACAUUGUUUAUCUAGCAAACGUGACAA	0.307
UGACUUUACAUGAAACAAGUUCAGUUUCGUUUACCAGCCUUUCUGGGUUCCCUUUGACUCCCCUGCUAACCCCACAUAAUUGAGAAUGUUUUGACCAAGUGUAAAAAUAG	0.617
AAAAUUUGAAGAAAAAGAGCCACCUCAUAUUCAUAGAGUGUGUAUUUUGUGAGUGUGUGAGCAUUUGAUUGGAAAUAAGAAAGUUAUUAAGUAAAUUUUUCGUUUUACUU	0.526
CGUGGAGUGGUCCUAACAAGAGAGCCUGACCUUAGGCUGUACACACACUGUGGAAUUUCUUCAAGGGAGCUGCCGGCCGGCGCAGAACCCCCAGGAGCACAGGUCUCUCC	0.305
UCUCCAGGUGUACUGCACUUACCCUCAAUCCAGCCCCGGAGAAGCAAGUGAAAAGGGUGGGUCCCUCAUAGGCUAGAAUGUGCAGCUCUUUCUCCAGGUGGGAUGUAGCA	3.56
GGCGUAGCAUCAUAGUAGUUUUUACAGCUGUGUUAUUCUUUGCGUGUAGCUAUGGAAGUUGCAUAAUUAUUAUUAUUAUUAUUAUAACAAGUGUGUCUUACGUGCCACCA	0.585
AGAAUCAACAUCCCUAGAAAGAUCCCUAGAAAGAGCAAAGAAGGAAACACAUCUGUCAUUGUCUUGUGGACGUGGAAAGGAAGCUACUGUCCUCACACUCCUGGAUCACU	0.313
ACUAGCCUGCCACUCCCAAUCACACACAGCAGAUGUCAGUGCUGUGCUAAUAUUAGCUGCAUUUCCUGCAGGGCAGGGAUGCGACCUUGCACAUGCUAGGCAAGCUCUCU	0.919
UGCUCACCUGGCUCUGGAGGGCUGCCCUGCAGCUGGGCCUGGGGACAGGUCGGCUGUGGGGCAGCUCAGUACCCUCCCUGAGGCUCACGGUGGCUCCGAGCAUGAGGUCC	1.46
GACAAGGUGAAAUGAUAAUUCGUGUCAAAUUAAUGUGAAAUUUUUUUCCUGCAUUGUAAUAUUAUGAGGCCUGAGUCGCAGUUGAGUUUGAAAUUUGUAUUUAAUUUCAC	0.434

Series 2 — technique: aptamer microarray, sandwich; form: DNA with 2'F-ANA; medium: in vitro; tested at: 200 nM; together with: Cy3 exosite-II aptamer, 400 nM; direction: higher = stronger binding; strand: GGTTGGTGTGGTTGG
Target: Prothrombin, mature alpha-thrombin (F2, Homo sapiens, UniProt P00734)
Setting: whole 15-mer aptamer, many near background
Modification	mean fluorescence intensity [a.u.]
2'F-ANA at 1 3 4 5 6 7 11 12 14 15	50
2'F-ANA at 2 4 7 9 10 13 14 15	63.4
2'F-ANA at 5 9 12 13	107
2'F-ANA at 5 7 8 9 10 15	53.1
2'F-ANA at 1 6 7 9 10 15	54.3
2'F-ANA at 2 8 11 15	380
2'F-ANA at 2 5 6 7 8 9	85.6
2'F-ANA at 1 8 10 12 14 15	51.8
2'F-ANA at 1 2 3 4 6 8 9 10 11 12 14	183
2'F-ANA at 2 3 4 5 6 7 8 10 11 12 13 14	60.1
2'F-ANA at 2 6 7 8	516
2'F-ANA at 1 2 3 6 7 8 9 10 11 13 14 15	54.7
2'F-ANA at 2 3 4 7 8 12 13 14 15	310
2'F-ANA at 2 4 5 6 7 9 10 11 12	72.2
2'F-ANA at 1 3 5 6 7 10 14	44.5
2'F-ANA at 1 4 5 6 9 10 12 13 15	62.3
2'F-ANA at 1 6 7 8 9 10 11 12 14 15	78.9
2'F-ANA at 1 2 3 4 6 7 11 13 14 15	62.1

Series 3 — technique: protein-binding microarray; form: double-stranded DNA, one strand shown; medium: in vitro; tested at: 940 nM top; setting: 60-bp whole probe; together with: salmon DNA 0.4 mg/ml; reference: random background probes; direction: higher = stronger binding; shared flanks, not repeated: GCCTAGCAC … GTCTTGATTCGCTTGACGCTGCTG
Target: Interferon regulatory factor 5, full length, phosphomimetic (IRF5, Homo sapiens, UniProt Q13568-2, residues 1-514, S451D/S453D/S456D/S462D)
Strand	fitted relative affinity [z-score]
TGAGCACCCAGAGCCGCCTGGTGCTAG	-0.511
TTAGATTTCATTATCGATTAGTGCTAG	1.26
TCCCAATTCTCTTTTCACTTGTGCTAG	2.44
TTAGGACTAGACACTGGGTTAGTGCTA	-0.298
TATCCTATCAGTTTAATATCGTGCTAG	0.519
CACGATTTCGGGTATCGAGACGTGCTA	1.53
TCAAGCTTGGGTCTGTGACTGTGCTAG	-0.439
TTAGGACTGGACTTTCGGTTAGTGCTA	2.33
GACGGTTTCGGTTTCGGGAGGTGCTAG	14.1
GACGGTTTCCTTTTCCTGGCGTGCTAG	2.77
TTAGGTCTCCTACTTCTTTAGTGCTAG	0.059
TTAGGTATCGACACTGGGCTAGTGCTA	4.91
GACGATATCGGGTTTTGAGACGTGCTA	0.154
TTAGGTTTCCTTCGCCTTTAGTGCTAG	1.96
GACGGTATCGGACTGTGGACGTGCTAG	2.6
TCAGATTTATCAAATGTGACTGTGCTA	-0.505
CTTGTTCTTAGCTTGGGTCTGTGCTAG	0.123

Series 4 — target: CCND1, cyclin fold, Cln2 fusion (human); technique: yeast growth competition, sequencing; medium: yeast; setting: strong parent motif; reference: not given; direction: higher = stronger binding
Starting sequence: PKN2 docking peptide (human); VSAVQKLDFSDTM; partner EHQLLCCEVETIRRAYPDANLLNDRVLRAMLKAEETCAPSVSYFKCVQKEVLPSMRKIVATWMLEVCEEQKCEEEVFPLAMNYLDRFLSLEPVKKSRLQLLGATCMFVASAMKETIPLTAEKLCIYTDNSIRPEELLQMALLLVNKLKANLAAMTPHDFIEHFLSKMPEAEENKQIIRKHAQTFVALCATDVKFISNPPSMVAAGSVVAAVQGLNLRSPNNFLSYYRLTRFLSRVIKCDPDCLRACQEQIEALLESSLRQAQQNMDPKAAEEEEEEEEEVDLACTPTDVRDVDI
Substitution	normalised enrichment score
T12P	2.69
F9K	0.191
D11L	2.07
M13P	2
A3R	0.423
S10H	1.18
L7E	0.348
V1A	1.64
F9I	-0.0917
F9P	0.123
A3N	0.335
V4Q	0.891
A3K	0.548
L7Y	0.298
M13W	2.34
M13C	1.83
V4K	0.625
V1T	2.43
S2T	1.92
D8Y	1.22
L7F	1.23
V4I	2.75
D8E	1.03
V1H	2.43
T12G	2.39

Series 5 — technique: EMSA with sequencing; form: double-stranded DNA, one strand shown; medium: in vitro; tested at: 10 and 20 nM; reference: negative control set to 0; direction: higher = stronger binding
Target: Hepatocyte nuclear factor 3-alpha (Foxa1, Mus musculus, UniProt P35582, residues 1-468, full length assumed)
Setting: whole designed probe, mean of two concentrations, ends assumed
Shared flanks, not repeated: GTGAGCGGTGCCCATTGATGGGGAAC … TTTCACTGGGATCGTGGGGAC
Residues (chain): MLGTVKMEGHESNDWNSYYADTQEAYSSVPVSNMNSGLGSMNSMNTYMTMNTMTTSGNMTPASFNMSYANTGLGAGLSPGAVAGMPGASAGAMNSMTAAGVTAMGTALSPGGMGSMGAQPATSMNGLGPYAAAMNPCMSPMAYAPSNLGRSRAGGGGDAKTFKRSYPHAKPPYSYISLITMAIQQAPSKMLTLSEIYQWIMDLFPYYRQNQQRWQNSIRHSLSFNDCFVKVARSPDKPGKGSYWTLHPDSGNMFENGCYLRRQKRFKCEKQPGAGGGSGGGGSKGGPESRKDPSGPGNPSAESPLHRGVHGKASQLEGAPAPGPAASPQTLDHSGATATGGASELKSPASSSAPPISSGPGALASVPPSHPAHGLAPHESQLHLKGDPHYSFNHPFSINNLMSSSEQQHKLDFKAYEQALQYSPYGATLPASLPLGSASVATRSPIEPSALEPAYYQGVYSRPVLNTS
Strand	normalised bound fraction [ratio]
ATTATTTCATTATACAAATATAAATGTCATTCTTTGATTTTAGAAGAAATCATGATATGTCATTCTATTGAGTGCTAACTAAAAGTTCCCTTTGTTTACTTAGCTTTCTCTTAGTCATAAGAAAGAAGAAGATCTCTTGCGTGAAAACAGCATGTTGCGGGAAGAAATTGCCATGCTAAGACTGGAACTAGAT	0.533
ATTAGTTCATGCCAGGCAGGGTTTGACCAAAACCTTGGACTCACTCCTGTCTGCTTTCCTTCAGAGACTATGAGGATTCCTGAGATGGATGTGCAAACATGAAGTGTTTACTTTCCTCCATGGGAATGTACTTCTGGCTTCCACTCCTCAGCTGCTGCTGCTAAGCCAGTGAGATAGATGGTGGTTTGGAAAC	0.42
ATCTTCCCCCTCTTCCTTGCCCCACCAGCTCACCTTCCCGGGTTATTTGCAGATAGGAAAATAAATAAAGCCGGCATTCGTTAACCCTCTTCACGCGCATACTGCCAGAGCAAACAGATCTAACATGGTCCTTTGGGATGAATCATGTCCGGGAGAGCAAAGCACCGTGTCAGGGCCATGATCCGGGGTGGCC	0.386
TTTATGATCTGAGTATATATAGTAAGTACCTCCCCTTTCAGGGTAAGGCAGTAGGTAATGGTGAACAGGGAAGCAAAAGGTGACTCAGGTTGAGTAATCTACACCAAGCATATCTGACTCAAGGAATGCTTCAGAGGCCAGGGGTGCATGCCTGTAATCCCAGCACCTTGGAAGGCTGACACAGGAGGATCAC	-0.0558
TGAGGCCTGAGGTGGCAGTGGGGAGGAGCTCATGGGGAGCTTAATTGTACCATCCTGGTTATTACTCATTTCACAAACATTTACATGTCTCAGTGTTGACTTAGTAGTGACGACTGCTGGACCTCGTGCATCAAAGATTTGAGGTGAGGGAACACTTAAAGAATTGGCAGTAGCCACAGCATGAACCAACGGC	0.32
AACTTTCATGCACAAAAAGACACATGAGCATCATCTAATAAATATTCCTTCTTGTTACAGATGAGAAACAGGCTGGGCATGGTGACTCATGCCTGTTTACCCAGCACTTTACAAGGCCAAGATGGGAGGATCACTTGAGCCCAGGGGCTCGAGACCAGCCTGGGCAACATGGTGAGACCTCATCTCTACAAAA	0.286
GGATTCTTTCATTATACAAATACAGATGTTATTTTTTAATTTCAGAAGAAATCATGATATATCAATCTATTGAGTGCTAACTAAAAGTTCCCTTTGTTTACTTAGCTTTCTCTTAGTTATAAGAAAGAAAAAGACCTCTTGCATGAAAATAGTACGTTGCAGGAAGAAATTGTCATGCTAAGACTGGAACTAG	0.521
CCCTCATCCTGGGTGTCGGGGTGGGAGGTGTTCTCATCATGAATGGGAGGCGTACCCAGATCCAGCTCTGCCTTTTTTTAACCAAACCAGAGTGTAAACAAATGGCTGTTAATCGAGTGACTCACCACATAGCAAGATATGATACATGCCAGGAGAGAAAAAGAAAGTGCTGATGGAAAAATAATCTCATTAG	0.342

Single results of other studies
Strand	target	test	system	setting	how to read	endpoint	result
GGGAGUUCUACAGUCCGACGAUCAAUAAUGAACCGUAUUAAAGAAACAUUCUCGUCUUCCUUUACCUUUAAUCCCCUAAUACCCCGUCUACUUUUUAAAUUUUCAGACUUCACUGCUUUUUGAAUUCAUAAUUCUAAUUUUCACAACAGAGGAUUGAGCAUCA	RING finger protein unkempt homolog, zinc fingers 1-6, SBP tag (UNK, Homo sapiens, UniProt Q9C0B0, residues 30-357)	RNA Bind-n-Seq	RNA, in vitro	100 nM, RNA with constant flanks, ends assumed	reference: input RNA pool, higher = stronger binding	bound/input enrichment	0.619 ratio

A few entries again (series 2):
Modification	mean fluorescence intensity [a.u.]
2'F-ANA at 2 8 11 15	380
2'F-ANA at 5 7 8 9 10 15	53.1
2'F-ANA at 2 3 4 7 8 12 13 14 15	310
2'F-ANA at 5 9 12 13	107
2'F-ANA at 1 6 7 9 10 15	54.3
2'F-ANA at 1 8 10 12 14 15	51.8
2'F-ANA at 2 6 7 8	516
2'F-ANA at 2 4 7 9 10 13 14 15	63.4
2'F-ANA at 1 3 5 6 7 10 14	44.5
